Measurements from different studies.
Compare with care: the assays were run in different laboratories. ± marks the error that the study gave.
Cell line: MCF7

CC=C(C)C(=O)OC1C(O)C2OC(COC(=O)CCCCCCCCCC(CCCCC)OC3OC(C)C(OC(C)=O)C(O)C3O2)C1OC(=O)C=Cc1ccccc1 (stereo not drawn)
IC50 (cytotoxicity): 0.033 µM

COc1cc2c(cc1OC)C(=O)C(=Cc1ccc(N3CC[N+](C)(C)CC3)cc1)C2
LD50 (cell viability, MTT; 48 h): 2.21 µM

CCCCCC1CCCCCCC(=O)CCC(=O)OCC2OC(OC3C(O1)OC(C)C(OC(C)=O)C3O)C(O)C(OC(=O)C(C)CC)C2OC(=O)C=Cc1ccccc1 (mixture of isomers)
IC50 (cytotoxicity): 0.477 µM

CC(C)C[C@@H]1NC(=O)[C@@H](Cc2c[nH]c3ccccc23)NC(=O)[C@H](CCCCN)NC(=O)[C@@H](Cc2c[nH]cn2)NC(=O)[C@H](CO)NC(=O)[C@@H](Cc2c[nH]cn2)NC(=O)[C@H](CCCCN)NC(=O)[C@@H](Cc2c[nH]c3ccccc23)NC1=O
CC50 (cytotoxicity): 11 µM

CCCCn1cc(C(=O)O)c(=O)c2cc(F)c(Nc3cccc(Cl)c3)c(N)c21
IC50 (cell growth, SRB; 72 h): 8.73 ± 0.75 µg/mL

CC[C@H](C)[C@@H]1NC(=O)[C@H](CCCCN)NC(=O)[C@H](CCCCN)NC(=O)[C@H](Cc2ccc(O)cc2)NC(=O)[C@H](CC(C)C)NC(=O)[C@@H]2CCCN2C(=O)[C@H](C)NC(=O)CNC(=O)CNC(=O)[C@H](CO)NC(=O)CNC(=O)CNC(=O)[C@H](CO)NC(=O)[C@H]([C@@H](C)O)NC(=O)[C@H](CC(C)C)NC(=O)[C@H](CC(C)C)NC(=O)[C@H](C)NC(=O)[C@H](Cc2c[nH]c3ccccc23)NC(=O)[C@H](Cc2ccc(O)cc2)NC(=O)[C@H](Cc2c[nH]cn2)NC(=O)[C@H](CCC(=O)O)NC(=O)[C@H](Cc2ccccc2)NC(=O)[C@H]([C@@H](C)O)NC(=O)[C@H](CC(C)C)NC(=O)[C@@H]2CCCN2C(=O)CNC(=O)CNC(=O)CSC[C@@H](C(N)=O)NC(=O)[C@H](CC(C)C)NC(=O)[C@H](CCCCN)NC(=O)[C@H](CCCCN)NC(=O)[C@H]([C@@H](C)CC)NC1=O
CC50 (cell viability, resazurin; 24 h): > 32 µM

N=C(N)NCCC[C@H]1NC(=O)[C@H](CCCN)NC(=O)[C@@H](Cc2c[nH]cn2)NC(=O)[C@H](Cc2ccc(O)cc2)NC(=O)[C@@H](Cc2ccc(O)cc2)NC(=O)[C@H](Cc2ccccc2)NC(=O)[C@@H](Cc2c[nH]c3ccccc23)NC(=O)[C@H](CO)NC1=O
CC50 (cytotoxicity): 18 µM

CCCCCC1CCCCCCC(=O)CCC(=O)OCC2OC(OC3C(O1)OC(C)C(OC(C)=O)C3O)C(O)C(O)C2OC(=O)C=Cc1ccccc1 (stereo not drawn)
IC50 (cytotoxicity): 5.93 µM

CCCCn1cc(C(=O)O)c(=O)c2cc(F)c3c(nnn3-c3ccccc3Cl)c21
IC50 (cell growth, SRB; 72 h): 30.8 ± 4.56 µg/mL

N=C(N)NCCC[C@H](NC(=O)[C@@H]1CCCN1C(=O)[C@H](CC(N)=O)NC(=O)[C@H](Cc1ccccc1)NC(=O)[C@H](Cc1c[nH]cn1)NC(=O)[C@H](Cc1ccccc1)NC(=O)[C@H](Cc1ccccc1)NC(=O)Cc1ccc2ccccc2c1)C(=O)O
remaining peptide (cell lysate; 200 µM, 1 h, added: bortezomib 100 nM): 50%

CCCCn1cc(C(=O)O)c(=O)c2cc(F)c(Nc3ccccc3Cl)c(N)c21
IC50 (cell growth, SRB; 72 h): 23.4 ± 3.14 µg/mL

O=C(CCc1ccccc1)NOC(=O)OCc1ccccc1
viability (800 µM): < 30%

Excerpt of the above:
CCCCn1cc(C(=O)O)c(=O)c2cc(F)c(Nc3ccccc3Cl)c(N)c21
IC50 (cell growth, SRB; 72 h): 23.4 ± 3.14 µg/mL
